Published values gathered from unrelated publications.
Numbered parts are unrelated; each lists some results of a single study.
Chain of UniProt Q6ZN16 (whole entry, looked up): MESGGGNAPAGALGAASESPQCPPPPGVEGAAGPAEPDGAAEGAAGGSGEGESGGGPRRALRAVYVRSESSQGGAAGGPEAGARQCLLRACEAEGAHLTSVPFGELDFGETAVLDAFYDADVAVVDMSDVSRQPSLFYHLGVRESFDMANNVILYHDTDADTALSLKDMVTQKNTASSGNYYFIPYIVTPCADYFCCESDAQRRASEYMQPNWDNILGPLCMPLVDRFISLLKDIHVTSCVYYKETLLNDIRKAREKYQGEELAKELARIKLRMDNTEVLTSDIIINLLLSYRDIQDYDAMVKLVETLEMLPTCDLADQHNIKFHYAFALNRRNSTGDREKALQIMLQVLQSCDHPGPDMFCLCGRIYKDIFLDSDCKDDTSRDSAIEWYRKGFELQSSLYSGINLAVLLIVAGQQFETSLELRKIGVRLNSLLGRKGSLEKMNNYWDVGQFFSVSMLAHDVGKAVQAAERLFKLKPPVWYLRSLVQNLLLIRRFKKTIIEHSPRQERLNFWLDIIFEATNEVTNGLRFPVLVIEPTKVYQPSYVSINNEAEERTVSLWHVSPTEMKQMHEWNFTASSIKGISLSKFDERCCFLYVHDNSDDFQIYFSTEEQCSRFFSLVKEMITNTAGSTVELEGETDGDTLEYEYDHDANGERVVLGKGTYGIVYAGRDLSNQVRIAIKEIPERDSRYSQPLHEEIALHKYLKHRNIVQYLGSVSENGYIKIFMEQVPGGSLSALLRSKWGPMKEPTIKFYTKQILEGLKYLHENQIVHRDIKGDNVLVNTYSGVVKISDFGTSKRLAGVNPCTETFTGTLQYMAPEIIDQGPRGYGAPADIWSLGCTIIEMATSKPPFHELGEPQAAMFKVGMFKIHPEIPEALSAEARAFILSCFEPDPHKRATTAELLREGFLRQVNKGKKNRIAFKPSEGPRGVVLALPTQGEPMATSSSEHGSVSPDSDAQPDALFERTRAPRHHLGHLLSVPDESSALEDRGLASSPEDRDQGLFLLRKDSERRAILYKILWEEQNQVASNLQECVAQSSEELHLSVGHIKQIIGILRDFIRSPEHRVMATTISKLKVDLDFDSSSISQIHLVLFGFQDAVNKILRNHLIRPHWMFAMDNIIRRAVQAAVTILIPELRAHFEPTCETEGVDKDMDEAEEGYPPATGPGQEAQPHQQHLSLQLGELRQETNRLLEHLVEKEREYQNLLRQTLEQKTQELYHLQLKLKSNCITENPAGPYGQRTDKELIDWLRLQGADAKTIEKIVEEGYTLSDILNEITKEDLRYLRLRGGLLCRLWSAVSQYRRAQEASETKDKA
Chain of UniProt Q96L34 (whole entry, looked up): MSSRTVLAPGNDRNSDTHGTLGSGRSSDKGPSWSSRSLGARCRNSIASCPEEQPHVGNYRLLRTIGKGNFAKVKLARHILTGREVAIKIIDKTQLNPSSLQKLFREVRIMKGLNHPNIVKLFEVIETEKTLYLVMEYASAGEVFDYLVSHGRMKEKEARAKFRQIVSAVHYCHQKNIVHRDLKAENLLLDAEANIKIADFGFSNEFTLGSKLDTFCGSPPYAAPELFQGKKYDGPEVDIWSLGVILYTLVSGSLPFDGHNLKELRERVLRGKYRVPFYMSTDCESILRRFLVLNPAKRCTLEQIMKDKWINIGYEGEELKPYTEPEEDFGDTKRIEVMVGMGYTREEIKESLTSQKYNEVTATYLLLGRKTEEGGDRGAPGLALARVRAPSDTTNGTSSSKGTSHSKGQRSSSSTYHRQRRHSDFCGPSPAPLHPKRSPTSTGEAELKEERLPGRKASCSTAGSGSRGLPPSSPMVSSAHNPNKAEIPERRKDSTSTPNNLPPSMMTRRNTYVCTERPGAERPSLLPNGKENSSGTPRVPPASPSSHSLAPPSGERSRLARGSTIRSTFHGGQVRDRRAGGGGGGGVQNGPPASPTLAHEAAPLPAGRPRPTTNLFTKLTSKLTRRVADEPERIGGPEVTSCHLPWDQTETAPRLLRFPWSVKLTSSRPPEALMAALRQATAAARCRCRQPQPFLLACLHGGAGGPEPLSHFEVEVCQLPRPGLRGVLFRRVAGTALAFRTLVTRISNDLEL
Chain of UniProt P19784 (whole entry, looked up): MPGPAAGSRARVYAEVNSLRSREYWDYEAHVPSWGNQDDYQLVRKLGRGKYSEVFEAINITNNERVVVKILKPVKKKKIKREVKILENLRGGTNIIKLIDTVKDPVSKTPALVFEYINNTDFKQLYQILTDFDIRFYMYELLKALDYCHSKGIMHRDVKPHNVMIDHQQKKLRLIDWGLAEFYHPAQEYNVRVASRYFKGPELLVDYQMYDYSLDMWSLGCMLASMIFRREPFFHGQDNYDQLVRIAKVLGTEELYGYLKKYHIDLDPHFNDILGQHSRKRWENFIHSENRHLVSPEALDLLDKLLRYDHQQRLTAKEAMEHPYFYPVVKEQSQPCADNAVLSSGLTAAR
Chain of UniProt Q13233 (whole entry, looked up): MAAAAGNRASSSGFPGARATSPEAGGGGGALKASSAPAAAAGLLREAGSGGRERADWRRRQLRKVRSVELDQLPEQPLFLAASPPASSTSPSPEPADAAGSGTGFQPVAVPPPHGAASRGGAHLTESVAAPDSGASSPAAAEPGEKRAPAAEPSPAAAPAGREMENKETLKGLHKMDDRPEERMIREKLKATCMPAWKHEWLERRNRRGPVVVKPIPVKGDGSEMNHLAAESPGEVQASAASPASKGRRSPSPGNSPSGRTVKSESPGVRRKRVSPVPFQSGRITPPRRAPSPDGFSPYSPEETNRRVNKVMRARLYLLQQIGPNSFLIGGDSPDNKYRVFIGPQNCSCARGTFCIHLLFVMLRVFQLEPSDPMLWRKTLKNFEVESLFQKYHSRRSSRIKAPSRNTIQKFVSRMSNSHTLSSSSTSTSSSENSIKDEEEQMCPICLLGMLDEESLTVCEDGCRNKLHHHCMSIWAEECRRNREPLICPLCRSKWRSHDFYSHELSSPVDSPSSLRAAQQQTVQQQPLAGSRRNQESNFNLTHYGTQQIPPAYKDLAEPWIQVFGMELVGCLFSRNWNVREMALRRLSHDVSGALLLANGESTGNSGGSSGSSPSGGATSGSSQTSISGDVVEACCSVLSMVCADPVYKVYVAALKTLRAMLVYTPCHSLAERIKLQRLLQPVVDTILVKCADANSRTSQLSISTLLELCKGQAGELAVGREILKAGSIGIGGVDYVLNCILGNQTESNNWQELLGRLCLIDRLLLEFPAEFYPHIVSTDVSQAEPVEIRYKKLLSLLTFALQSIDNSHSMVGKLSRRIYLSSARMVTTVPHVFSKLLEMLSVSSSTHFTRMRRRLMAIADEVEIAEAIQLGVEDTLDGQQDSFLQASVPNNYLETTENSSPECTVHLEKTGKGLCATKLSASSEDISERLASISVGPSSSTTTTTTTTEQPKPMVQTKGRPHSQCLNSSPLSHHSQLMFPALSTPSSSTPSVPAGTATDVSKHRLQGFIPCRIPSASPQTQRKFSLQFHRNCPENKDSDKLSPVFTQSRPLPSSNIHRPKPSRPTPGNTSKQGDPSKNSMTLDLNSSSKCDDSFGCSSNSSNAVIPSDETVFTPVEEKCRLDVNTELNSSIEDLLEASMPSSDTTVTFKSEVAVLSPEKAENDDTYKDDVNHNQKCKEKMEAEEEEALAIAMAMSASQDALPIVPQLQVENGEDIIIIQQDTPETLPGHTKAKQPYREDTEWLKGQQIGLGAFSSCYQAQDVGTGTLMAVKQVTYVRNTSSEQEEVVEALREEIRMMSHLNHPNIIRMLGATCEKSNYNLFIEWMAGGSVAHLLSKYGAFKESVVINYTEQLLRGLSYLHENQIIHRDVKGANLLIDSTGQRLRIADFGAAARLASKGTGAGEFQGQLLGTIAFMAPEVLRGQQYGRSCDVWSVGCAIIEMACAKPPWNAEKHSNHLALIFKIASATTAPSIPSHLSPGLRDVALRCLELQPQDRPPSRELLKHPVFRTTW
Chain of UniProt Q86UX6 (whole entry, looked up): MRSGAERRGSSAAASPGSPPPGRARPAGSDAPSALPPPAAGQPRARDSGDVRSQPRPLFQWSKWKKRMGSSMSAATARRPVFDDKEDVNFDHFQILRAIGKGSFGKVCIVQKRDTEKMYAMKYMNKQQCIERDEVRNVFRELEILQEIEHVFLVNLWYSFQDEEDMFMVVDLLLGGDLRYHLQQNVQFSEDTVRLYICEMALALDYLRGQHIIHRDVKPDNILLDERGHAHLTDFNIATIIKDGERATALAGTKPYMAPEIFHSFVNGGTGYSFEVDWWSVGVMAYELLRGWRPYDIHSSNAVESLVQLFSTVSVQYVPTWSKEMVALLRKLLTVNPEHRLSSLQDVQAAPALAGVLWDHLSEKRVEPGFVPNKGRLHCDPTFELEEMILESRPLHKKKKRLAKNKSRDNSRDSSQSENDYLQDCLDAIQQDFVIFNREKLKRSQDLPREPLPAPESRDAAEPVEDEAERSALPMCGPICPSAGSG

Sample 1 — host: mouse; medium: microsomes or S9; concentration: 2 µM; time: 0.5 h
SMILES | remaining compound [%]
COc1cc2c(cc1OC)CN(C(=O)COc1cn(C)c(C)cc1=O)[C@H](C(N)=O)C2 | 91.5
CN(C)CCn1c(=N)n(CC(O)c2ccc(Cl)c(Cl)c2)c2ccccc21 (stereo not shown) | 35.9
CCOc1ccc(C(C)=O)cc1COc1ncnc2ccc(Br)cc12 | 3.18
COc1cc2c(cc1OC)/C(=N\c1ccccc1)N(Cc1ccc(F)c(F)c1)CC2 | 0.125
NC(=O)c1c(-c2ccc(Cl)cc2Cl)csc1NC(=O)CC1(CC(=O)O)CCCC1 | 76.4
COc1ccc(C#Cc2nc3ccc(C)cc3o2)cc1 | 49.3

Sample 2 — cell line: mouse MPNST tumor cells; technique: high-content immunofluorescence imaging; refers to: nuclear SOX9; concentration: 10 µM; time: 12 h; notes: mean of 2 replicates; baseline: DMSO control; direction: higher = more nuclear SOX9
Compound | nuclear SOX9 intensity
CCCCc1cc2ccccc2c(OCCN(C)C)n1 | 143 % of DMSO
O=C(Nc1ccc(N2CCC(C(=O)N3CCOCC3)CC2)cc1)c1cnc(Oc2ccccc2)nc1 | 98.9 % of DMSO
O=C(c1ccc(Cl)cc1)N(Cc1ccccc1)C1CCCCC1 | 107 % of DMSO
COc1cc([S+](C)[O-])ccc1-c1nc2cccnc2[nH]1 (stereo not shown) | 105 % of DMSO

Sample 3 — effect on: enzyme activity; action: inhibitor; concentration: 0.5 µM; baseline: control
Target: Ephrin type-B receptor 3 (EPHB3, Homo sapiens, UniProt P54753)
Target sequence (P54753 1-998): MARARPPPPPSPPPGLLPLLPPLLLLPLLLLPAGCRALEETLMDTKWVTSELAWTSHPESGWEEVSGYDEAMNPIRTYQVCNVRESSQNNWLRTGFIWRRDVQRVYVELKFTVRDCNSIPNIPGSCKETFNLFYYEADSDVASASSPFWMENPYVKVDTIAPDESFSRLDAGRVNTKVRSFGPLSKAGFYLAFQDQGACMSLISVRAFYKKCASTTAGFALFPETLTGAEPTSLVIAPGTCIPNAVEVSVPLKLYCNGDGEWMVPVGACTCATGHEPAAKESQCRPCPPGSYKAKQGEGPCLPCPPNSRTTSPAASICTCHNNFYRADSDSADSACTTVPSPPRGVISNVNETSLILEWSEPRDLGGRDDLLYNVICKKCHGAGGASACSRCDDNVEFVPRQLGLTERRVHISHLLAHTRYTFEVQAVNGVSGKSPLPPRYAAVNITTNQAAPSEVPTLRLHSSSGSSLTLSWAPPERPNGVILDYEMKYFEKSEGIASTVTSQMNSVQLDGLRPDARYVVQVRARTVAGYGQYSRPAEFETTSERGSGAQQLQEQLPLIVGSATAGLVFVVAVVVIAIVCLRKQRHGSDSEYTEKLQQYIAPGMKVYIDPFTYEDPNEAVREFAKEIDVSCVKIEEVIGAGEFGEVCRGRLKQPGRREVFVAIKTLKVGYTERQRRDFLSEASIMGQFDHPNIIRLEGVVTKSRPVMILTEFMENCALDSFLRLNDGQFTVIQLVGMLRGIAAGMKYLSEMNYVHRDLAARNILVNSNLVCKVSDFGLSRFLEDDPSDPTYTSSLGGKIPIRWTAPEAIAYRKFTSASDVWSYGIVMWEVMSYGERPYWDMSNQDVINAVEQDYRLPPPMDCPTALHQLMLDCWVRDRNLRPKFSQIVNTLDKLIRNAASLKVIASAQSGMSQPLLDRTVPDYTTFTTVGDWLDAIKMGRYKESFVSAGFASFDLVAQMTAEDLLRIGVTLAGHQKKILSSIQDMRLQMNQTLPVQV
Compound | remaining activity [%]
O=C(CCCc1ccc(-c2ccccc2F)cc1)Nc1ccc(O)cc1 | 96.5
Oc1ccc(-c2nc(-c3ccncc3)c(-c3ccc(F)cc3)[nH]2)cc1 | 97.7
CO[C@H]1C[C@@H]2CC[C@@H](C)[C@@](O)(O2)C(=O)C(=O)N2CCCC[C@H]2C(=O)O[C@H]([C@H](C)C[C@@H]2CC[C@@H](O)[C@H](OC)C2)CC(=O)[C@H](C)/C=C(\C)[C@@H](O)[C@@H](OC)C(=O)[C@H](C)C[C@H](C)/C=C/C=C/C=C/1C | 103
COc1ccc(C(=O)Nc2sc3c(c2C(N)=O)CCCC3)cc1OC | 92.4
Cc1ccc(NC(=O)c2ccc(CN3CCN(C)CC3)cc2)cc1Nc1nc(-c2cccnc2)cs1 | 80.9
Cn1c2ccccc2c2c3c(c4c5ccccc5n(CCC#N)c4c21)CNC3=O | 87.2
Cc1cccc(-c2[nH]c(C(C)(C)C)nc2-c2ccc3c(c2)OCO3)n1 | 103

Sample 4 — effect on: cell-free assay; technique: competition with immobilised ligand; concentration: 1 µM
SMILES: CN([C@@H]1CCc2c(CC(=O)O)c3ccccc3n2C1)S(=O)(=O)c1ccc(F)cc1
target | remaining binding [%]
CSNK2A2 (Homo sapiens, UniProt P19784) | 100
SRC (Homo sapiens, UniProt P12931) | 100
MAP3K1 (Homo sapiens, UniProt Q13233) | 62
STK32C (Homo sapiens, UniProt Q86UX6) | 100
MAP3K15 (Homo sapiens, UniProt Q6ZN16) | 100
BMPR1B (Homo sapiens, UniProt O00238) | 100
MARK4 (Homo sapiens, UniProt Q96L34) | 100
FLT3 (Homo sapiens, UniProt P36888, D835V/ITD) | 95

Some of these lines once more (sample 2):
Compound | nuclear SOX9 intensity
O=C(Nc1ccc(N2CCC(C(=O)N3CCOCC3)CC2)cc1)c1cnc(Oc2ccccc2)nc1 | 98.9 % of DMSO
COc1cc([S+](C)[O-])ccc1-c1nc2cccnc2[nH]1 (stereo not shown) | 105 % of DMSO
